# Assay results of several laboratories.
# Compare with care: the assays were run in different laboratories.
# Target: Phosphatidylinositol 3-kinase catalytic subunit type 3 (PIK3C3, Homo sapiens, UniProt Q8NEB9)
Structure (SMILES),assay,conditions,quantity,result
C=CC(=O)N1CCCC(n2c(=O)c3ncccc3n(Cc3ccc(Oc4ccccc4)cc3)c2=O)C1 (centres unmarked),"cell-free assay, competition with immobilised ligand",1 µM,remaining binding,88%
COc1c(Cl)cccc1Nc1c(-c2ccncc2C#C[C@@]2(C)CCCN2C(=O)/C=C/CN(C)C)[nH]c2c1C(=O)NCC2,"cell-free assay, competition with immobilised ligand",3 µM,remaining binding,83%
C=CC(=O)N1Cc2nc(-c3cc(-c4cc(Cl)cnc4Cl)c(F)cc3F)n(-c3ccncn3)c2C1,cell-free assay,1 µM,inhibition,-2.2%
Cc1cnc2nc1Nc1cccc(c1)COC/C=C/COCc1cc(ccc1OCCN1CCOCC1)N2,"binding, competition with immobilised ligand",0.1 µM,remaining binding,75%
CN1CCN(Cc2ccc(-c3ccc(CO[C@H]4CCC[C@@H]4NC(=O)c4cc(-c5cnn(C)c5)cnc4N)cc3)cc2)CC1,"enzyme activity, inhibitor",0.1 µM,inhibition,-5%
COc1cc(Nc2nccc(-c3cnn4nc(OC)ccc34)n2)cc(C(F)(F)F)c1,"binding, competition with immobilised ligand",1 µM,remaining binding,100%
CC(C)=CC1OC(C)(C)C2C=C3C(=O)C(Cl)=CC(O)C3C3C(O)C4OC4C(=O)C132 (centres unmarked),"cell-free assay, competition with immobilised ligand",10 µM,remaining binding,66%
COc1cc(Nc2nc(C)cc(-c3cnn4nc(OC)ccc34)n2)cc(C(F)(F)F)c1,"binding, competition with immobilised ligand",1 µM,remaining binding,100%
CCN1CCN(Cc2ccc(NC(=O)c3ccc(C)c(NC(=O)c4cncc(-c5cnn(C)c5)c4)c3)cc2C(F)(F)F)CC1,"binding, competition with immobilised ligand",1 µM,remaining binding,100%
CNC(=O)C1CCN(c2cc(C)c(F)cc2NC(=O)c2ccc(-c3cc(O)ccc3C)c(C)c2)CC1,"binding, competition with immobilised ligand",1 µM,remaining binding,64%
Nc1ncc2c(n1)-c1c([nH]c3ccc(C4=CCOCC4)cc13)CCC2,"binding, competition with immobilised ligand",1 µM,remaining binding,68%
